Measurements collected from several papers.
Parts stem from different laboratories: compare values within a part only.
Chain of UniProt Q9HBH9 (whole entry, looked up): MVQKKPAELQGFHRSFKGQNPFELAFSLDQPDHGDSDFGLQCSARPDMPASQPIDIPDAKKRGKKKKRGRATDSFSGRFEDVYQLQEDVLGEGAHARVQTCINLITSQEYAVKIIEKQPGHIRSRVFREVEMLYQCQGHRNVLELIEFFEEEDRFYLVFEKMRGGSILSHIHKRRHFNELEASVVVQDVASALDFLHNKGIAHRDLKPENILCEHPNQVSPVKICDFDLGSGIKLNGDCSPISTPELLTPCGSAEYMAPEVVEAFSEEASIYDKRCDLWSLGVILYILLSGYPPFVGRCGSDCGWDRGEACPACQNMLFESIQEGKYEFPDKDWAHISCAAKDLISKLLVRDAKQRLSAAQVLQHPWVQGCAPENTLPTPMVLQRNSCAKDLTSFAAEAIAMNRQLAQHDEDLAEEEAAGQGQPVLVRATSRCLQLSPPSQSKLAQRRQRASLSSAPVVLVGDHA
Chain of UniProt P50750 (whole entry, looked up): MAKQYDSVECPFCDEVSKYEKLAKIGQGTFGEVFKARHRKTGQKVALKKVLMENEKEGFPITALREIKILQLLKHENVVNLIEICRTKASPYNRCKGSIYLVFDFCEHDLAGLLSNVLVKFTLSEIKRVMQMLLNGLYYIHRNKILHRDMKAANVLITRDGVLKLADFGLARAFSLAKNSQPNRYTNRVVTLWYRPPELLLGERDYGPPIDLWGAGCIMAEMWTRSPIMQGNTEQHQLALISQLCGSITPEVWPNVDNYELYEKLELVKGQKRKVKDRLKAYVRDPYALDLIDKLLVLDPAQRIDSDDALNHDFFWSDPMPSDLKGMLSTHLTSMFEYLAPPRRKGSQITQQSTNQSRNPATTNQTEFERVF
Chain of UniProt Q02779 (whole entry, looked up): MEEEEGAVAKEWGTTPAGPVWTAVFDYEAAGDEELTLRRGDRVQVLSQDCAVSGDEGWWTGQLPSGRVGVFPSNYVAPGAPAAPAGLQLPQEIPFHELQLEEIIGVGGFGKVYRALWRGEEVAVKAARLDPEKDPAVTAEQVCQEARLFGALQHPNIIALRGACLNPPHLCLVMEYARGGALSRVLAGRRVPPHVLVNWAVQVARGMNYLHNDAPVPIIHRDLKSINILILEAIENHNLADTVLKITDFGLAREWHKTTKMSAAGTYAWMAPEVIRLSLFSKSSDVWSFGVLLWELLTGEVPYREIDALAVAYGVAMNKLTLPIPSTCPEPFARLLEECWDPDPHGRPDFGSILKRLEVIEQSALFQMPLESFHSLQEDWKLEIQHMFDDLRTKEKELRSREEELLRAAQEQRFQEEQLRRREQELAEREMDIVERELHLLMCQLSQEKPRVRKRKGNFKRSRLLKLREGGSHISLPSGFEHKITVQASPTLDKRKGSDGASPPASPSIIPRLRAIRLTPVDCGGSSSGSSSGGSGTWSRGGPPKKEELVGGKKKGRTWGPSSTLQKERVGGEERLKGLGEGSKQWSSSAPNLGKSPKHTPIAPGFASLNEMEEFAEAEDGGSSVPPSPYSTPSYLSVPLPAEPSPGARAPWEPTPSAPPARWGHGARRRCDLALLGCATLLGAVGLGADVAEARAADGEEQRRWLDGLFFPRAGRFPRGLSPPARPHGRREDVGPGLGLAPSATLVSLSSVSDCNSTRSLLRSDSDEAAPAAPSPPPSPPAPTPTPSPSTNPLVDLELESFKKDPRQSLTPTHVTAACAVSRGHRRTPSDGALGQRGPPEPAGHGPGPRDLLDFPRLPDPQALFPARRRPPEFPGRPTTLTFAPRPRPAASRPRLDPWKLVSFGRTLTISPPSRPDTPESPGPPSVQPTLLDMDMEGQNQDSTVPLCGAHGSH
Chain of UniProt Q96L34 (whole entry, looked up): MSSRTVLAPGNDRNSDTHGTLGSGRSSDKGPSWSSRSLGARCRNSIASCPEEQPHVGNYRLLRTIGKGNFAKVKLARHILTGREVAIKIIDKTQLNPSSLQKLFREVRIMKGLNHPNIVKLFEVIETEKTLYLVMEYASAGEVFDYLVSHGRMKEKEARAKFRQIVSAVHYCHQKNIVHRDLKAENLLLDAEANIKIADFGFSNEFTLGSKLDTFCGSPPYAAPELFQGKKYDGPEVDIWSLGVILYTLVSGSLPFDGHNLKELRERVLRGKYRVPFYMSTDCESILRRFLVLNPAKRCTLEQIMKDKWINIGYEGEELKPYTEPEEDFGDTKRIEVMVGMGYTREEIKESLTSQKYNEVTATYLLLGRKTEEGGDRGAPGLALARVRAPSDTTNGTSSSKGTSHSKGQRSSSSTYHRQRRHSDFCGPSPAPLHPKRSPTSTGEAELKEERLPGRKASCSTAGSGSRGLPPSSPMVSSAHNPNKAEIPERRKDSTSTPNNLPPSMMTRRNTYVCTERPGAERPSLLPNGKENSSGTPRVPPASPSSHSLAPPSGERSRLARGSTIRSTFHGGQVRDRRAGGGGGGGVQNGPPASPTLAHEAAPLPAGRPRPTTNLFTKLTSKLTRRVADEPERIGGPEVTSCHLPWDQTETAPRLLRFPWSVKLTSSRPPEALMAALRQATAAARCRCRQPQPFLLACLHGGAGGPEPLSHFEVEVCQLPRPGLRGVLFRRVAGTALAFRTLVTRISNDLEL
Chain of UniProt P41743 (whole entry, looked up): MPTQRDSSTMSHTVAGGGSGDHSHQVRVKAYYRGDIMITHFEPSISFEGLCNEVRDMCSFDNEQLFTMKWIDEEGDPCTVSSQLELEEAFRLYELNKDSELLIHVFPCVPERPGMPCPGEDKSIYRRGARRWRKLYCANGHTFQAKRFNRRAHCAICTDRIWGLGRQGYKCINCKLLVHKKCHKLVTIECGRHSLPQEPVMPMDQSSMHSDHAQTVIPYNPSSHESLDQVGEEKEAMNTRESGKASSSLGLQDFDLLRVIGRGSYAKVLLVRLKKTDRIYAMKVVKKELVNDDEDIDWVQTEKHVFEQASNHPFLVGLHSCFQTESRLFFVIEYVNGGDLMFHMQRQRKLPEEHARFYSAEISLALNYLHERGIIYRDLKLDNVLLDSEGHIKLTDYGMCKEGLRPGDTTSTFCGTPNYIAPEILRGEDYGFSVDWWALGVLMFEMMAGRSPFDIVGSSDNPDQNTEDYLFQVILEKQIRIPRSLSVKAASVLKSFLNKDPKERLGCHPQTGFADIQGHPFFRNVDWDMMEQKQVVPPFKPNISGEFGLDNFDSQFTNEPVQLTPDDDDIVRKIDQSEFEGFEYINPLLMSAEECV
Chain of UniProt Q02750 (whole entry, looked up): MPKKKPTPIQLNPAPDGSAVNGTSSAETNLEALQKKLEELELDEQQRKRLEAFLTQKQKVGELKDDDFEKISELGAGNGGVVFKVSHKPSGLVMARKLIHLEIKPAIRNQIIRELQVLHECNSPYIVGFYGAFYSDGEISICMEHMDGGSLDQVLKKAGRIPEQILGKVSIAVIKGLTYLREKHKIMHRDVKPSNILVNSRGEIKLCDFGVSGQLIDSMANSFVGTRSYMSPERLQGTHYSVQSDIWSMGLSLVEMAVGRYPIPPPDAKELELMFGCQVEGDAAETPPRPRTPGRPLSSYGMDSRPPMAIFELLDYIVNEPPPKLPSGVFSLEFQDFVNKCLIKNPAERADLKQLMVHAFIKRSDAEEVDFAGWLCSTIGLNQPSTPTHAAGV
Chain of UniProt Q9Y243 (whole entry, looked up): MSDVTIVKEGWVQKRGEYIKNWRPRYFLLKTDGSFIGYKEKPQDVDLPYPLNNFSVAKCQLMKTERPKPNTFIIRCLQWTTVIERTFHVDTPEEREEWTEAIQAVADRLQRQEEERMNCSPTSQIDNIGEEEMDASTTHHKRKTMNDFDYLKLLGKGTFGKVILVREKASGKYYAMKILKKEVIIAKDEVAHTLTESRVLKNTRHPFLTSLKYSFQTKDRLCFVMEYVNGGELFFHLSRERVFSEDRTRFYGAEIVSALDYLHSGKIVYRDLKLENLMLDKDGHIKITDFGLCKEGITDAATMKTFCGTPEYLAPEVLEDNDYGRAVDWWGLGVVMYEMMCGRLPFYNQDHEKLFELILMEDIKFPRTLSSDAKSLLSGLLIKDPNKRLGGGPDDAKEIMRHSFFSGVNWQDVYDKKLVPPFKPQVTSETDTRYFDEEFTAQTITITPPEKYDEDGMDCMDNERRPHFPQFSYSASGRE
Chain of UniProt Q05655 (whole entry, looked up): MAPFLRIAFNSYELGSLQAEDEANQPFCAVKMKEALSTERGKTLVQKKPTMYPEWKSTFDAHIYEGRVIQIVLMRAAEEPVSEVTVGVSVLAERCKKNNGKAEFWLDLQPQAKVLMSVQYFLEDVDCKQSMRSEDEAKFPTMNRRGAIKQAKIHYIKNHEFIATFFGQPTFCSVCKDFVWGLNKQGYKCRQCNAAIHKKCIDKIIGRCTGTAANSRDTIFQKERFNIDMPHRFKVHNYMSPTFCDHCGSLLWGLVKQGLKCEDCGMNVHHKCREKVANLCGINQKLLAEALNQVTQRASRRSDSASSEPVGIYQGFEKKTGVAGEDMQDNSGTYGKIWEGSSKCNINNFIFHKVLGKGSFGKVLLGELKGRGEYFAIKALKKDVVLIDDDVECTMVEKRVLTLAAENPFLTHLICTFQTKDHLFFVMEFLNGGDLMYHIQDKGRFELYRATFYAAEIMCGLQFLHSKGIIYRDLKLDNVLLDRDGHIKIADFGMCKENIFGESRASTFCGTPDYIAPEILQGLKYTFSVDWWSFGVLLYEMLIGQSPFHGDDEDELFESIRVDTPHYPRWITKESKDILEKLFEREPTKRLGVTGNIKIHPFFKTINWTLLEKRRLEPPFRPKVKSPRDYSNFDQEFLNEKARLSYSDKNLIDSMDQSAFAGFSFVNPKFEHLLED
Chain of UniProt P52564 (whole entry, looked up): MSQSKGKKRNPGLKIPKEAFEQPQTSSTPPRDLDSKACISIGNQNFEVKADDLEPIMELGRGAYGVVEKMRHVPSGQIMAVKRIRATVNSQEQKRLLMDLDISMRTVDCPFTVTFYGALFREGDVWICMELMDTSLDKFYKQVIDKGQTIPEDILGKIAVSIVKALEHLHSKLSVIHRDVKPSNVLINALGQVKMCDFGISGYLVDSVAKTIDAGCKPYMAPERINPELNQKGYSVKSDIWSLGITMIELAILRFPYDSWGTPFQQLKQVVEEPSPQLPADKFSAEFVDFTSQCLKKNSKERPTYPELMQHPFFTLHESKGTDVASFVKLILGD

Block 1 — read-out: enzyme activity; action: inhibitor; concentration: 0.5 µM; relative to: control
SMILES: CC(=O)O/N=C1/C(c2c(O)[nH]c3cc(Br)ccc23)=Nc2ccccc21
target | remaining activity
MAP kinase-interacting serine/threonine-protein kinase 2 (MKNK2, Homo sapiens, UniProt Q9HBH9) | 66.9%
Tyrosine-protein kinase Lyn (LYN, Homo sapiens, UniProt P07948) | 28.1%
Protein kinase C delta type (PRKCD, Homo sapiens, UniProt Q05655) | 97%
Cyclin-dependent kinase 9, with cyclin T1 (CDK9, Homo sapiens, UniProt P50750) | 91.5%
Serine/threonine-protein kinase Chk1 (CHEK1, Homo sapiens, UniProt O14757) | 100%
Serine/threonine-protein kinase WNK2 (WNK2, Homo sapiens, UniProt Q9Y3S1) | 98.6%
Serine/threonine-protein kinase Nek4 (NEK4, Homo sapiens, UniProt P51957) | 85.6%
Mitogen-activated protein kinase kinase kinase 10 (MAP3K10, Homo sapiens, UniProt Q02779) | 92.3%
Tyrosine-protein kinase BTK (BTK, Homo sapiens, UniProt Q06187) | 27.3%
RAC-gamma serine/threonine-protein kinase (AKT3, Homo sapiens, UniProt Q9Y243) | 95.1%
Leucine-rich repeat serine/threonine-protein kinase 2 (LRRK2, Homo sapiens, UniProt Q5S007) | 87.6%
Dual specificity mitogen-activated protein kinase kinase 6 (MAP2K6, Homo sapiens, UniProt P52564) | 87.2%
Protein kinase C iota type (PRKCI, Homo sapiens, UniProt P41743) | 74.3%

Block 2 — technique: phase 2a trial; species: idiopathic pulmonary fibrosis patients
Compound: CC(C)n1cnc(-c2ccc(F)cc2)c1-c1ncc(C(=O)Nc2ccc(N3CCN(C)CC3)cc2)[nH]1
test | setting | adverse event incidence
refers to: synovitis | 30 mg once daily, grade 1 | 0%
refers to: synovitis | dose not given, grade 5, all arms pooled | 0%
refers to: hepatic enzyme abnormal | dose not given, grade 3, all arms pooled | 0%
refers to: hepatic enzyme abnormal | dose not given, grade 5, all arms pooled | 0%
refers to: liver injury | 30 mg once daily, grade 3 | 0%
refers to: appendicitis | 30 mg once daily, grade 1 | 0%
refers to: drug eruption | 60 mg once daily, grade 1 | 0%
refers to: ventricular extrasystoles | 60 mg once daily, grade 4 | 0%

Block 3 — read-out: cell-free assay; technique: competition with immobilised ligand; concentration: 1 µM
SMILES: Cc1nc(C2CCN(C(=O)c3ccc(OC(F)(F)F)cc3N)CC2)c2ncc(N3CCN(C)CC3)cc2n1
target | remaining binding [%]
Epidermal growth factor receptor (EGFR, Homo sapiens, UniProt P00533, L858R) | 89
MAP/microtubule affinity-regulating kinase 4 (MARK4, Homo sapiens, UniProt Q96L34) | 100
Wee1-like protein kinase (WEE1, Homo sapiens, UniProt P30291) | 94
MAP kinase-interacting serine/threonine-protein kinase 2 (MKNK2, Homo sapiens, UniProt Q9HBH9) | 100
Hepatocyte growth factor receptor (MET, Homo sapiens, UniProt P08581, Y1235D) | 98
Mitogen-activated protein kinase kinase kinase 4 (MAP3K4, Homo sapiens, UniProt Q9Y6R4) | 100
Dual specificity mitogen-activated protein kinase kinase 1 (MAP2K1, Homo sapiens, UniProt Q02750) | 85
Dual specificity tyrosine-phosphorylation-regulated kinase 1B (DYRK1B, Homo sapiens, UniProt Q9Y463) | 61
Maternal embryonic leucine zipper kinase (MELK, Homo sapiens, UniProt Q14680) | 93
Serine/threonine-protein kinase haspin (HASPIN, Homo sapiens, UniProt Q8TF76) | 100
Ephrin type-A receptor 7 (EPHA7, Homo sapiens, UniProt Q15375) | 92
Epidermal growth factor receptor (EGFR, Homo sapiens, UniProt P00533, del746-750) | 100
Dual specificity protein kinase TTK (TTK, Homo sapiens, UniProt P33981) | 100
Receptor-type tyrosine-protein kinase FLT3 (FLT3, Homo sapiens, UniProt P36888, D835H) | 69
Myosin light chain kinase family member 4 (MYLK4, Homo sapiens, UniProt Q86YV6) | 100

Block 4 — cell line: A-375; concentration: 100 µM; time: 18 h
Compound | viability [%]
CC(C)NCC(O)COc1ccc(CCOCC2CC2)cc1 (centres unmarked) | 95.6
C/C(=C\C(=O)OCCCCCCCCC(=O)O)C[C@@H]1OC[C@H](C[C@@H]2O[C@H]2[C@@H](C)[C@H](C)O)[C@@H](O)[C@H]1O | 92.5
CC(C)(C)NCC(O)COc1cccc2c1C[C@H](O)[C@H](O)C2 (mixture of isomers) | 106
CC(C)(Sc1cc(C(C)(C)C)c(O)c(C(C)(C)C)c1)Sc1cc(C(C)(C)C)c(O)c(C(C)(C)C)c1 | 100
N#C[C@@H]1C[C@@H]2C[C@@H]2N1C(=O)[C@@H](N)C12CC3CC(CC(O)(C3)C1)C2 | 96
O=C(O)c1ccccc1OP(=O)(O)O | 90.4
Nc1nccs1 | 81.4
CC1=C(C)C(=O)C(C(CCCCCC(=O)O)c2ccccc2)=C(C)C1=O (centres unmarked) | 93.4
Nc1ccn([C@@H]2O[C@H](CO)[C@@H](O)C2(F)F)c(=O)n1 | 69
C#C[C@]1(O)CC[C@H]2[C@@H]3CCC4=CC(=O)CC[C@@H]4[C@H]3C(=C)C[C@@]21CC | 60.3
Cc1c(Cl)cccc1Nc1ccccc1C(=O)O | 85.4

A few entries again (block 3):
target | remaining binding [%]
Receptor-type tyrosine-protein kinase FLT3 (FLT3, Homo sapiens, UniProt P36888, D835H) | 69
Maternal embryonic leucine zipper kinase (MELK, Homo sapiens, UniProt Q14680) | 93
Ephrin type-A receptor 7 (EPHA7, Homo sapiens, UniProt Q15375) | 92
Mitogen-activated protein kinase kinase kinase 4 (MAP3K4, Homo sapiens, UniProt Q9Y6R4) | 100
